Results of several laboratories.
Each line is one published result; not all experiments were run side by side.
CDK15: Cyclin-dependent kinase 15 (CDK15, Homo sapiens, UniProt Q96Q40)

Compound | target | assay | system | setting | scale | endpoint | value
CS(=O)(=O)Nc1cccc(-c2csc3cnc(Nc4ccc(N5CCN(CCCCCOc6cccc7c6C(=O)N(C6CCC(=O)NC6=O)C7=O)CC5)cc4)nc23)c1 (stereo not shown) | CDK15 | probe labelling, inhibitor, KiNativ chemoproteomics | MOLT-4 | 1 µM | – | inhibition | 19.8%
COc1c(Cl)cccc1Nc1c(-c2ccncc2C#C[C@@]2(C)CCCN2C(=O)/C=C/CN(C)C)[nH]c2c1C(=O)NCC2 | CDK15 | binding, competition with immobilised ligand | – | 3 µM | – | remaining binding | 97%
CNC(=O)C1CCN(c2cc(C)c(F)cc2NC(=O)c2ccc(-c3cc(O)ccc3C)c(C)c2)CC1 | CDK15 | binding, competition with immobilised ligand | – | 1 µM | – | remaining binding | 100%
C=CC(=O)N1CCc2ccc(-n3c(=O)ccc4cnc5ccc(-c6cnn(C)c6)cc5c43)cc21 | CDK15 | KINOMEscan | – | 1 µM | reference: DMSO control | remaining binding | 100%
CC(C)=CC1OC(C)(C)C2C=C3C(=O)C(Cl)=CC(O)C3C3C(O)C4OC4C(=O)C132 (stereo not shown) | CDK15 | cell-free assay, competition with immobilised ligand | – | 10 µM | – | remaining binding | 98%
CNC1C[S+]2CC[S+]3CC[S+](C1)[Ru-4]321([N]=C=S)[n]2c3ccc(OC)cc3c3c4c(c5cc(F)c[n+]1c5c32)C(=O)NC4=O (stereo not shown) | CDK15 | KinomeScan | – | 0.1 µM | reference: untreated | remaining binding | 89%
COc1cc(Nc2nc(C)cc(-c3cnn4nc(OC)ccc34)n2)cc(C(F)(F)F)c1 | CDK15 | KINOMEscan | – | 1 µM, PFTAIRE2 | reference: DMSO | remaining binding | 90%
Cc1cnc2nc1Nc1cccc(c1)COC/C=C/COCc1cc(ccc1OCCN1CCOCC1)N2 | CDK15 | binding, competition with immobilised ligand | – | 0.1 µM | – | remaining binding | 100%
C=CC(=O)N1CCCC(n2c(=O)c3ncccc3n(Cc3ccc(Oc4ccccc4)cc3)c2=O)C1 (stereo not shown) | CDK15 | cell-free assay, competition with immobilised ligand | – | 1 µM | – | remaining binding | 92%
Nc1ncc2c(n1)-c1c([nH]c3ccc(C4=CCOCC4)cc13)CCC2 | CDK15 | binding, competition with immobilised ligand | – | 1 µM | – | remaining binding | 98%
CCn1cc(C(=O)O)c(=O)c2c(N)c(F)c(NC3CCCCC3)cc21 | Cyclin-dependent kinase 15, with cyclin B1 (CDK15, Homo sapiens, UniProt Q96Q40) | kinase activity | – | 0.1 µM, with: ATP at Km | – | inhibition | 52.7%
CCN1CCN(Cc2ccc(C(=O)Nc3ccc(C)c(NCc4cnc5[nH]ccc5c4OC)c3)cc2C(F)(F)F)CC1 | CDK15 | binding, competition with immobilised ligand | – | 1 µM | – | remaining binding | 43%
COc1cc(Nc2nccc(-c3cnn4nc(OC)ccc34)n2)cc(C(F)(F)F)c1 | CDK15 | binding, competition with immobilised ligand | – | 1 µM | – | remaining binding | 90%

Repeated from above:
Compound | target | assay | system | setting | scale | endpoint | value
CC(C)=CC1OC(C)(C)C2C=C3C(=O)C(Cl)=CC(O)C3C3C(O)C4OC4C(=O)C132 (stereo not shown) | CDK15 | cell-free assay, competition with immobilised ligand | – | 10 µM | – | remaining binding | 98%
